Results of several laboratories.
Parts stem from different laboratories: compare values within a part only. Changes are numbered by the printed parent chain.

Set 1
Target: CCNE1, cyclin fold, Cln2 fusion (human)
Technique: yeast growth competition, sequencing
Medium: yeast
Notes: weak parent motif
Baseline: not given
Reading: higher = stronger binding
Starting sequence: ORC1 docking peptide (human); PRARKRLELGNLG
Under “normalised enrichment score”, `PRARKRLELDNLG [G10D]` is recorded as 1.16.
`PRARKRKELGNLG [L7K]` — result for “normalised enrichment score”: 0.854.
Under “normalised enrichment score”, `PRARKRLELGNLC [G13C]` is recorded as 0.022.
`PRARKRDELGNLG [L7D]`: “normalised enrichment score” 0.588.
Under “normalised enrichment score”, `PRARKRLELGWLG [N11W]` is recorded as 0.936.
`PRARKRLELGNLV [G13V]`: “normalised enrichment score” 0.29.
Under “normalised enrichment score”, `PRARKRLRLGNLG [E8R]` is recorded as 0.312.
`PRAEKRLELGNLG [R4E]`: “normalised enrichment score” 0.895.
`PRARKRNELGNLG [L7N]`: “normalised enrichment score” -0.546.
For `PRARKRLELGNLT [G13T]`, “normalised enrichment score” read -0.589.
`PRARRRLEFGNLG [K5R L9F]`: “normalised enrichment score” 6.02.
`PRARKRLELGNQG [L12Q]`: “normalised enrichment score” -0.229.
`PRARKELELGNLG [R6E]` — result for “normalised enrichment score”: -0.043.
`PRACKRLELGNLG [R4C]`: “normalised enrichment score” 0.454.
`PRARKRPELGNLG [L7P]` — result for “normalised enrichment score”: -1.14.
`VRARKRLELGNLG [P1V]`: “normalised enrichment score” -0.338.
`PRARPRLELGNLG [K5P]`: “normalised enrichment score” 0.293.
`PRAGKRLELGNLG [R4G]`: “normalised enrichment score” 0.38.

Set 2
Target: Histone acetyltransferase KAT6A, both winged helices, GST fusion (KAT6A, Homo sapiens, UniProt Q92794, residues 1-181)
Technique: protein binding microarray
Form: double-stranded DNA, one strand shown
Medium: in vitro
Concentration: not given
Notes: 8-mer, flanks averaged, mean of 2 arrays, mostly near background
Baseline: not given
Reading: higher = stronger binding
Target sequence (chain): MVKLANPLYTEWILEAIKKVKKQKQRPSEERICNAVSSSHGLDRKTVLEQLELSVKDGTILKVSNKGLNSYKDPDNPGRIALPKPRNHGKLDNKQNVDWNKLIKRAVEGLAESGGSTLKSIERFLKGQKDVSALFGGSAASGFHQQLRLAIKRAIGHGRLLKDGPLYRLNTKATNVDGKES
For `CCGTGAAA`, the E-score was 0.284.
`AAGTATTC` gave an E-score of -0.201.
With `TATCCACA` the E-score was -0.19.
The E-score of `TGGCTAAA` is reported as -0.0427.
With `AATTAAGC` the E-score was -0.0161.
The E-score of `CGTTAAAA` is reported as 0.0672.
For `CACGTCTA`, the E-score was -0.0231.
`CCATGACA` gave an E-score of -0.104.
With `ATATAGTA` the E-score was -0.111.
The E-score of `ATTTAAGA` is reported as -0.147.
For `AAGTGTCA`, the E-score was -0.178.
`AAATTAGT` has an E-score of -0.0363.
With `CAGATGGA` the E-score was -0.015.
For `CATATAGC`, the E-score was -0.0199.
The E-score of `ATTCTGTG` is reported as -0.0588.
With `GAAGTTTA` the E-score was -0.0443.
`CAGAATCA` gave an E-score of 0.00536.
For `CCCACTAC`, the E-score was -0.315.
`GCATCTTA` has an E-score of -0.11.
For `CACTATGC`, the E-score was -0.0226.
For `CTAGTCAG`, the E-score was -0.266.
`CCCTGCAC` has an E-score of -0.2.
`ATGTTCCG` has an E-score of 0.138.
`CGCTGGGA` has an E-score of 0.01.
For `CACGCTGC`, the E-score was 0.117.

Set 3
Target: ABI1, truncated, D143A, DHFR fusion (Arabidopsis thaliana)
Technique: DHFR PCA, deep sequencing
Medium: yeast
Notes: methotrexate growth selection, single substitutions
Together with: (+)-ABA 2500 µM
Baseline: wild-type fitted maximum
Reading: higher = stronger binding
Starting sequence: PYL1, truncated, DHFR fusion (Arabidopsis thaliana); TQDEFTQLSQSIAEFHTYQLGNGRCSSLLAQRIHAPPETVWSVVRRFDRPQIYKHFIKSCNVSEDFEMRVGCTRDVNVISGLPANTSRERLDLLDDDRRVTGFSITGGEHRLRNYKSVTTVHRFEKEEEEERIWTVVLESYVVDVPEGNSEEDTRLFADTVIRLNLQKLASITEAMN; partner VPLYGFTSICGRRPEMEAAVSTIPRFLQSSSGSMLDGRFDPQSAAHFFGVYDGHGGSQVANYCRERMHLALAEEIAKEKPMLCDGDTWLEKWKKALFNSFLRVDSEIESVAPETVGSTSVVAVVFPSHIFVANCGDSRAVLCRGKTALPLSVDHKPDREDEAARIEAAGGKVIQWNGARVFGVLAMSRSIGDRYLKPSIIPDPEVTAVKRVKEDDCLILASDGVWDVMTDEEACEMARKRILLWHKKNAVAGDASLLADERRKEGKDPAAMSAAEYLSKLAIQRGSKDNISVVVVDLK
`A35I`: “relative binding score” 76.4%.
`L28V` — result for “relative binding score”: 94.4%.
`I105M` — result for “relative binding score”: 89.1%.
`N61V`: “relative binding score” 98.9%.
`P146N` — result for “relative binding score”: 78.2%.
Under “relative binding score”, `S87Y` is recorded as 21.2%.
`R111T` — result for “relative binding score”: 62.9%.
`D97P`: “relative binding score” 97.8%.
Under “relative binding score”, `N165F` is recorded as 37.1%.
Under “relative binding score”, `I133Q` is recorded as 103%.
For `L82Q`, “relative binding score” read 81%.
`S27G`: “relative binding score” 98.3%.
For `N149S`, “relative binding score” read 92.4%.
Under “relative binding score”, `G107I` is recorded as 55.6%.
`L20S`: “relative binding score” 102%.

Set 4
Target: Sal-like protein 4, full length isoform A (SALL4, Homo sapiens, UniProt Q9UJQ4, residues 1-1053)
UniProt Q9UJQ4, sequence (whole entry, looked up): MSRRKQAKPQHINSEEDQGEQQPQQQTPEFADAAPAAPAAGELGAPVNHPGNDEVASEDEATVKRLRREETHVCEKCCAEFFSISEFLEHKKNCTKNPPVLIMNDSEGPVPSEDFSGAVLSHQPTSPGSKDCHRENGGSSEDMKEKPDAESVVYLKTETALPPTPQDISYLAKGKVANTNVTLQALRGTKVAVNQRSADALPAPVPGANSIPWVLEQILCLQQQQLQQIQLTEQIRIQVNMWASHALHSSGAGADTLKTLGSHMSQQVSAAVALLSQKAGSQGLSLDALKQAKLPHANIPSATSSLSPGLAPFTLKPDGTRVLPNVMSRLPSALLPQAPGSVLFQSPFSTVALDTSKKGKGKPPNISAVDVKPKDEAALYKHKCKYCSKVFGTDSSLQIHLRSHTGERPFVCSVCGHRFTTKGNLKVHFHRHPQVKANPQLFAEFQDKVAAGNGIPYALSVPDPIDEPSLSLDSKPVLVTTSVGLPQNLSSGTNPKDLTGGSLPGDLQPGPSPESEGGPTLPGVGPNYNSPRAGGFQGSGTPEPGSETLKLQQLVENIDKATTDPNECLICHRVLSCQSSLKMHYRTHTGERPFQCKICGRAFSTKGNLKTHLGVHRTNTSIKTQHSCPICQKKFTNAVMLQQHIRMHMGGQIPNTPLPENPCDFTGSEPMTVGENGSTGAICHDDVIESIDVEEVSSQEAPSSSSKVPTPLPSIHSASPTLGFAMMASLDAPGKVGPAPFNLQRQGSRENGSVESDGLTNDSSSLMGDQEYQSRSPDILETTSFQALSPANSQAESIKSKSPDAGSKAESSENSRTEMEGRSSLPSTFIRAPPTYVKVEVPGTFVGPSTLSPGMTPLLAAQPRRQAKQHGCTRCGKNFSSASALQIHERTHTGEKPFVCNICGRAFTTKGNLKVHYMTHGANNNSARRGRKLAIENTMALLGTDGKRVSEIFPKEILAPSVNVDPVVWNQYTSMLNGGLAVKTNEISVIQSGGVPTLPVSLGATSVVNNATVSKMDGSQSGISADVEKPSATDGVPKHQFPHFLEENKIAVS
Technique: universal PBM
Form: double-stranded DNA, one strand shown
Medium: in vitro
Concentration: 600 nM
Notes: 8-mer, flanks averaged, mean of replicates
Reading: higher = stronger binding
With `GCGTACAA` the E-score was -0.0611.
`GGCTATAC` gave an E-score of -0.227.
For `GATAGCTA`, the E-score was 0.0696.
`AAAGCGTT` has an E-score of 0.0743.
`CGGACTGC` has an E-score of -0.162.
For `AAAGTTGC`, the E-score was 0.0107.
With `GATTCTTA` the E-score was 0.226.
The E-score of `CTTGGACA` is reported as -0.12.
`CGCGTCTA` has an E-score of 0.00286.
For `ACAGCCGT`, the E-score was -0.229.
`GTGGCTTA` gave an E-score of -0.119.
`CTCCGCAA` gave an E-score of -0.137.
`CGACTAGA` has an E-score of -0.0576.
The E-score of `CGACCCGA` is reported as -0.275.
`CCCTATTA` has an E-score of 0.203.
`ATATCCGA` has an E-score of 0.227.
For `AGCCTGAT`, the E-score was -0.0501.
`CTAATCAA` gave an E-score of 0.189.
The E-score of `GGATTTAA` is reported as 0.143.
`ACGCGGCG` has an E-score of -0.294.
The E-score of `CGGTTTCC` is reported as -0.25.
The E-score of `GATCGGCC` is reported as -0.225.
With `CGCGTATA` the E-score was 0.075.
The E-score of `TATAGTCA` is reported as 0.27.
For `GCTAGTCA`, the E-score was -0.0614.

Set 5
Target: CEP164, C-terminal peptide (human)
Technique: DHFR complementation, deep sequencing
Medium: yeast
Notes: single substitutions, model-inferred values
Baseline: wild type
Reading: higher = weaker binding
Starting sequence: PDZK1, PDZ domain 2 (human); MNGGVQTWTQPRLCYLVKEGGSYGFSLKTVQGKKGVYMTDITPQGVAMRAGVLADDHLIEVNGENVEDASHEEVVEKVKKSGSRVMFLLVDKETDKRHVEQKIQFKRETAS; partner HNRVKVYRF
Under “binding free energy change”, `P43L` is recorded as 0.512 kcal/mol.
For `I59K`, “binding free energy change” read 0.533 kcal/mol.
`G20S`: “binding free energy change” 0.148 kcal/mol.
For `S81L`, “binding free energy change” read 0.711 kcal/mol.
`N2Q` — result for “binding free energy change”: -0.0801 kcal/mol.
`K34L`: “binding free energy change” 0.405 kcal/mol.
`H57E`: “binding free energy change” -0.631 kcal/mol.
Under “binding free energy change”, `Q44Y` is recorded as 0.0221 kcal/mol.
`G35H` — result for “binding free energy change”: 0.0249 kcal/mol.
`A69M`: “binding free energy change” -0.4 kcal/mol.
For `G32P`, “binding free energy change” read 0.959 kcal/mol.
`N2F` — result for “binding free energy change”: 0.00395 kcal/mol.
`Y15N` — result for “binding free energy change”: 0.102 kcal/mol.
`L53S`: “binding free energy change” 0.34 kcal/mol.
Under “binding free energy change”, `M86K` is recorded as -0.127 kcal/mol.
`P11G` — result for “binding free energy change”: -0.188 kcal/mol.
Under “binding free energy change”, `L89R` is recorded as 1.66 kcal/mol.

Some of these lines once more (set 5):
For `I59K`, “binding free energy change” read 0.533 kcal/mol.
`G20S`: “binding free energy change” 0.148 kcal/mol.
For `S81L`, “binding free energy change” read 0.711 kcal/mol.
`N2Q` — result for “binding free energy change”: -0.0801 kcal/mol.
`K34L`: “binding free energy change” 0.405 kcal/mol.
`H57E`: “binding free energy change” -0.631 kcal/mol.
Under “binding free energy change”, `Q44Y` is recorded as 0.0221 kcal/mol.
`G35H` — result for “binding free energy change”: 0.0249 kcal/mol.
`A69M`: “binding free energy change” -0.4 kcal/mol.
For `G32P`, “binding free energy change” read 0.959 kcal/mol.
`N2F` — result for “binding free energy change”: 0.00395 kcal/mol.
`Y15N` — result for “binding free energy change”: 0.102 kcal/mol.
`L53S`: “binding free energy change” 0.34 kcal/mol.
Under “binding free energy change”, `M86K` is recorded as -0.127 kcal/mol.
`P11G` — result for “binding free energy change”: -0.188 kcal/mol.
